{"sequences": {"note": "The chains behind the UniProt entries cited, without tags or fusion partners. Residues count along the entry.", "UniProt Q9BY41, whole entry": "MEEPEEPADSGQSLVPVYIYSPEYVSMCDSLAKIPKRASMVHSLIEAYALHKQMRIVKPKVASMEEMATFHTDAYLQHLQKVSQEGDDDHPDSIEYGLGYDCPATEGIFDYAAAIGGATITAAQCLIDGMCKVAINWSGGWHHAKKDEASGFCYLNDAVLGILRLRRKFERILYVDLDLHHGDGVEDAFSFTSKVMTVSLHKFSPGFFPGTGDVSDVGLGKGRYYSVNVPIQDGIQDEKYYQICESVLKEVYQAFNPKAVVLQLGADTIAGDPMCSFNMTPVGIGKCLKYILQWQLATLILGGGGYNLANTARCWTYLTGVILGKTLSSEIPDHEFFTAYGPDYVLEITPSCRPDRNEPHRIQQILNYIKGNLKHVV", "UniProt Q99797, 36-713 limits assumed": "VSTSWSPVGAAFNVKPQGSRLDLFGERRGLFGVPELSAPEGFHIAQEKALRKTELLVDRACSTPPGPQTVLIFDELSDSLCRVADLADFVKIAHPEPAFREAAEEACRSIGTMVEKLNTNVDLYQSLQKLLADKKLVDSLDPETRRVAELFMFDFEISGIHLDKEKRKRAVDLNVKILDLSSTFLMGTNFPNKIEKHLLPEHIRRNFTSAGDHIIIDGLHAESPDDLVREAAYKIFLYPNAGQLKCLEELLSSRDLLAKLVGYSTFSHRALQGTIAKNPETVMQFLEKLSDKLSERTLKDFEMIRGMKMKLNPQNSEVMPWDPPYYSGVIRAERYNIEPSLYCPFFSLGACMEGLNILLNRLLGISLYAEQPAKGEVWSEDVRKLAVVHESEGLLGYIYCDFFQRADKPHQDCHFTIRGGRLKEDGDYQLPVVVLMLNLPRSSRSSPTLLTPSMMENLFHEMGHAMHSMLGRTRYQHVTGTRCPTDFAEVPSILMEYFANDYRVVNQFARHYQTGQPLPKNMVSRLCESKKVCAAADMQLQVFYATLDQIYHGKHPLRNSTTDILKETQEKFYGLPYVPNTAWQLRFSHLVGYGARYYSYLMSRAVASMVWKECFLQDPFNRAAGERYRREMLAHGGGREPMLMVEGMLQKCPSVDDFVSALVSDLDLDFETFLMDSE", "UniProt Q9UDY8, whole entry": "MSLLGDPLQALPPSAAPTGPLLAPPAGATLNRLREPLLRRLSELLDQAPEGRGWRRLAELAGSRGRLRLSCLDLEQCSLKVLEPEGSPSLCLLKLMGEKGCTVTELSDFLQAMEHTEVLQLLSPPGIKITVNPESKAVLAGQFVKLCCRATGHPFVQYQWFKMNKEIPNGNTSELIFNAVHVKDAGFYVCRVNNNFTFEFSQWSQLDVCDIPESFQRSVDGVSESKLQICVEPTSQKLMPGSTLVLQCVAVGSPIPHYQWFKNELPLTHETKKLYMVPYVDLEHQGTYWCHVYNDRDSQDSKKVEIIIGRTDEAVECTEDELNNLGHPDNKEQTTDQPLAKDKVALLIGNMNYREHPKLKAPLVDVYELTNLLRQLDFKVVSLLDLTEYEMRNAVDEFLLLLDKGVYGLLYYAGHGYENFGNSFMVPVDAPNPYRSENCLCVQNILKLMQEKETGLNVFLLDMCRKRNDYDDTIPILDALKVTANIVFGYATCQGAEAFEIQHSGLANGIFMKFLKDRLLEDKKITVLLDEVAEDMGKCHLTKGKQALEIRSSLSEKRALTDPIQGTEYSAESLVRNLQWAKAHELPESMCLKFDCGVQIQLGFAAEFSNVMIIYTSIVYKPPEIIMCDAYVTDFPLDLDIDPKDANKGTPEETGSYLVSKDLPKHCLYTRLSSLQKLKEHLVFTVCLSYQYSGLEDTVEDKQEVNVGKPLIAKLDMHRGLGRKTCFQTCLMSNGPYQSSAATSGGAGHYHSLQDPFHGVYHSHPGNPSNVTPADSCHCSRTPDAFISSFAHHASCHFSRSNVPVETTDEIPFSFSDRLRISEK", "UniProt Q9UDY8, 329-566 limits assumed": "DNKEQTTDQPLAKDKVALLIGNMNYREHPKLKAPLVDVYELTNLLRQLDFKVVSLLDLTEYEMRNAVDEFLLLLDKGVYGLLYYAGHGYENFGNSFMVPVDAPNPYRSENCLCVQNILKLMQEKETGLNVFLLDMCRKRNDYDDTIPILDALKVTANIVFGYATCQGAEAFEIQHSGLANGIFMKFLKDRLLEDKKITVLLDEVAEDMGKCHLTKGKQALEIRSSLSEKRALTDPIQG", "UniProt Q96EB6, whole entry": "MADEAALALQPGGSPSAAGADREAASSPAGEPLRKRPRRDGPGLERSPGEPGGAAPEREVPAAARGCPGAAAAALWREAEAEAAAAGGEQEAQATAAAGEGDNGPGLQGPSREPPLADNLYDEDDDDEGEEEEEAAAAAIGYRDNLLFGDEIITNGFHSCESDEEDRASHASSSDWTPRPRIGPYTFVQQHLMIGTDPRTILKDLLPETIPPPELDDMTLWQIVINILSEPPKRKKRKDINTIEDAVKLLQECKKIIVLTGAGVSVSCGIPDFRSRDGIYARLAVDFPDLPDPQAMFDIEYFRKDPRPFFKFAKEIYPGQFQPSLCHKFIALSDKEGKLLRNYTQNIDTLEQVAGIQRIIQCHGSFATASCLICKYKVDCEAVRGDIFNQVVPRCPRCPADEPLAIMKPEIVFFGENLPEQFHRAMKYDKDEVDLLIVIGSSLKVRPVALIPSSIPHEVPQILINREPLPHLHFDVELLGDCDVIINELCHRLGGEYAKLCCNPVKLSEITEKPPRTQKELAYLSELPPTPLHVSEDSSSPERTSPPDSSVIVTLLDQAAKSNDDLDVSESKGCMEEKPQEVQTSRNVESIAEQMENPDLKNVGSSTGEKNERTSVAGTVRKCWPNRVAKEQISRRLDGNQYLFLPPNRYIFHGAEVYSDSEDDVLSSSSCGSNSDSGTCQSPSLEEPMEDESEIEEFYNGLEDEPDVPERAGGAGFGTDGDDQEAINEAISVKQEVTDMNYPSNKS", "UniProt Q9NY33, whole entry": "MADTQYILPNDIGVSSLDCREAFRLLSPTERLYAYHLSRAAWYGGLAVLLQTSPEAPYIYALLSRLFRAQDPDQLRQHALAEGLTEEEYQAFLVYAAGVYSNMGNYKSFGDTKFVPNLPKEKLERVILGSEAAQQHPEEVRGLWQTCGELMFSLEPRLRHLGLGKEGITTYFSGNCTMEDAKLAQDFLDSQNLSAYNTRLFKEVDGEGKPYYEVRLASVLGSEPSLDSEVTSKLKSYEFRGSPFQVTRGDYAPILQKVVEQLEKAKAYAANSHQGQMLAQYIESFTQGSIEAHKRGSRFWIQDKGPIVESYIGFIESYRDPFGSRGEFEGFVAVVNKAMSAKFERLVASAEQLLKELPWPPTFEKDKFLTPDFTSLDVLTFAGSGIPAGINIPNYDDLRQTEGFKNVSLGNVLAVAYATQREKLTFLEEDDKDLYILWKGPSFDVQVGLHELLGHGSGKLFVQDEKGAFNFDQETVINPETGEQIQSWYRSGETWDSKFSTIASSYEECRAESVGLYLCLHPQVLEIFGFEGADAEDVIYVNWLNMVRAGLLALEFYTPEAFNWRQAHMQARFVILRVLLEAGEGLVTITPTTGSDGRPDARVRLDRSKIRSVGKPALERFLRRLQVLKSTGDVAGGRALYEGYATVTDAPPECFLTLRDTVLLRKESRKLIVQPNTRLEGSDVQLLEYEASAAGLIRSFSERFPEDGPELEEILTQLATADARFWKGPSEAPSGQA", "UniProt O60502, whole entry": "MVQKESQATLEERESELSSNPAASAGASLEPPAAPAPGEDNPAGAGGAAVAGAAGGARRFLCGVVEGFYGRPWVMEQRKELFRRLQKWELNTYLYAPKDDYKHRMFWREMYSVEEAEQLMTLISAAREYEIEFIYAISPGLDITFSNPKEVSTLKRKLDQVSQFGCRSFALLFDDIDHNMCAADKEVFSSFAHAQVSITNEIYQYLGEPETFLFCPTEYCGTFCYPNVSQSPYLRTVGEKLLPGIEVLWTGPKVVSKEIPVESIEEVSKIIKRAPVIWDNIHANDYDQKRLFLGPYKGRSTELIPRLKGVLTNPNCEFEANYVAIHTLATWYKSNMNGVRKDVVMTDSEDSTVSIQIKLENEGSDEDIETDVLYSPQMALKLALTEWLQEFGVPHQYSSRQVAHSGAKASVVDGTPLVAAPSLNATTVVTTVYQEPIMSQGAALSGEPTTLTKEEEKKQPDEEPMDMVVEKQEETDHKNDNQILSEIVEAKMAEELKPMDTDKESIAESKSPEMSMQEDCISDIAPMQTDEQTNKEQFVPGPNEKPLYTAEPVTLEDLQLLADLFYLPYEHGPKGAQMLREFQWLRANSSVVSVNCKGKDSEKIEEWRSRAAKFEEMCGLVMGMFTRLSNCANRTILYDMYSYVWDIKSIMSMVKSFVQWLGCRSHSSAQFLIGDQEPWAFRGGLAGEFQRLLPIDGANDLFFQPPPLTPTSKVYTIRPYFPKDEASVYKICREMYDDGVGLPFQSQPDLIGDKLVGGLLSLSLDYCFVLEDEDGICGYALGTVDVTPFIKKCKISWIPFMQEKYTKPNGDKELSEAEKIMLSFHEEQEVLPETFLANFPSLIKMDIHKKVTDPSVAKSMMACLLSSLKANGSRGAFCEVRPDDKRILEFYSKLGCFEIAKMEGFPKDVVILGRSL", "UniProt O15379, whole entry": "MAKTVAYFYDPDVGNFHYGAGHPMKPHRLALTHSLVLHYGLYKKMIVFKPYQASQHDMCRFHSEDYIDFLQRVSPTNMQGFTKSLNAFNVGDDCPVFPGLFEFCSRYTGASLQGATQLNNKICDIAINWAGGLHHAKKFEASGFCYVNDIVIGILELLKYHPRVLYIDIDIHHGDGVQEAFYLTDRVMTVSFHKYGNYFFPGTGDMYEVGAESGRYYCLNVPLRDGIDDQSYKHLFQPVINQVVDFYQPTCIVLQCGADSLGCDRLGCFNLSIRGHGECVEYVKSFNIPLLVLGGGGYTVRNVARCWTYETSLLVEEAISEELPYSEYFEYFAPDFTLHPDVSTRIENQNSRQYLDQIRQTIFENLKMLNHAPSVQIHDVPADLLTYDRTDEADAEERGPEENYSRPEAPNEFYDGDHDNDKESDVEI", "UniProt Q9Y618, 389-480 partner limits assumed": "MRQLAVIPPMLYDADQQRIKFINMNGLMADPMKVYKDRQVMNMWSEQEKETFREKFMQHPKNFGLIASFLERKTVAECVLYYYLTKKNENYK"}, "data": "Measured values collected from several papers", "action": "substrate", "HDAC8": "Histone deacetylase 8 (HDAC8, Homo sapiens, UniProt Q9BY41)", "MIPEP": "Mitochondrial intermediate peptidase (MIPEP, Homo sapiens, UniProt Q99797)", "MALT1": "Mucosa-associated lymphoid tissue lymphoma translocation protein 1 (MALT1, Homo sapiens, UniProt Q9UDY8)", "note": "± marks the error that the study gave."}
{"Structure (SMILES)": "CC(=O)NCCCC[C@H](NC(=O)CNC(=O)[C@H](CCCNC(=N)N)NC(C)=O)C(=O)Nc1ccc2c(C)cc(=O)oc2c1", "target": "HDAC8", "setting": "25 °C", "Km": "500 ± 200 µM"}
{"Structure (SMILES)": "CC(=O)N[C@@H](CCC(N)=O)C(=O)N[C@H](C(=O)N[C@@H](C)C(=O)N[C@@H](CCCNC(=N)N)C(=O)N[C@@H](CCCCNC(=O)CCc1ccc(N=Nc2ccc(N(C)C)cc2)cc1)C(=O)N[C@@H](CO)C(=O)N[C@H](C(=O)NCC(=O)NCC(=O)NCCCNC(=S)Nc1ccc2c(c1)C(=O)OC21c2ccc(O)cc2Oc2cc(O)ccc21)[C@@H](C)O)[C@@H](C)O", "target": "NAD-dependent protein deacetylase sirtuin-1 (SIRT1, Homo sapiens, UniProt Q96EB6)", "test": "enzyme activity, plate reader kinetics", "Km": "0.1 ± 0.014 µM"}
{"Structure (SMILES)": "CC[C@H](C)[C@H](NC(=O)c1ccccc1N)C(=O)N[C@@H](CCCCN)C(=O)N[C@@H](CCC(N)=O)C(=O)N[C@@H](CO)C(=O)N[C@@H](CO)C(=O)N[C@@H](CC(C)C)C(=O)N[C@@H](CC(C)C)C(=O)N[C@@H](CCCCNc1ccc([N+](=O)[O-])cc1[N+](=O)[O-])C(N)=O", "target": "MIPEP", "test": "FRET peptide hydrolysis", "Km": "1.1 µM"}
{"Structure (SMILES)": "CC(=O)N[C@@H](C)C(=O)N[C@@H](CC(C)C)C(=O)N[C@H](C(=O)N[C@@H](CO)C(=O)N[C@@H](CCCNC(=N)N)C(=O)Nc1ccc2c(CC(N)=O)cc(=O)oc2c1)C(C)C", "target": "MALT1", "test": "fluorogenic peptide hydrolysis", "setting": "pH 7.5, catalytic domain, sodium citrate 0.9 M", "Km": "3 µM"}
{"Structure (SMILES)": "CC(=O)NCCCC[C@H](NC(=O)[C@H](CCCCNC(C)=O)NC(=O)[C@H](Cc1c[nH]cn1)NC(=O)[C@H](CCCNC(=N)N)NC(C)=O)C(N)=O", "target": "HDAC8", "setting": "25 °C", "Km": "3100 ± 1100 µM"}
{"Structure (SMILES)": "CC[C@H](C)[C@H](NC(=O)[C@H](Cc1ccc(O)cc1)NC(=O)[C@@H](NC(=O)[C@H](CCCNC(=N)N)NC(=O)[C@@H](N)CC(=O)O)C(C)C)C(=O)N[C@@H](Cc1cnc[nH]1)C(=O)N1CCC[C@H]1C(=O)O", "target": "Dipeptidyl peptidase 3 (DPP3, Homo sapiens, UniProt Q9NY33)", "test": "radiolabelled substrate hydrolysis", "setting": "37 °C, with: 0.5 nM iodinated substrate", "Km": "12 ± 2 µM"}
{"Structure (SMILES)": "CC(=O)N[C@@H](CC(C)C)C(=O)N[C@H](C(=O)N[C@@H](CO)C(=O)N[C@@H](CCCNC(=N)N)C(=O)Nc1ccc2c(CC(N)=O)cc(=O)oc2c1)C(C)C", "target": "MALT1", "test": "fluorogenic peptide hydrolysis", "setting": "20 min preincubation, pH 7.5, 37 °C, enzyme 399 nM, citrate 0.9 M", "Km": "15.3 µM"}
{"Structure (SMILES)": "CC(=O)N[C@H]1[C@H](OC[C@H](NC(=O)[C@H](Cc2ccc(O)cc2)NC(C)=O)C(=O)N[C@@H](CO)C(N)=O)O[C@H](CO)[C@@H](O)[C@@H]1O", "target": "Protein O-GlcNAcase (OGA, Homo sapiens, UniProt O60502)", "setting": "pH 7.5, 37 °C, with: 4MU-GlcNAc 200 µM competition", "Km": "2200 ± 100 µM"}
{"Structure (SMILES)": "CC(C)[C@H](NC(=O)c1ccccc1N)C(=O)N[C@@H](C)C(=O)N[C@@H](C)C(=O)N[C@@H](CCC(N)=O)C(=O)N[C@H](C(=O)N[C@@H](CCCCN)C(=O)N[C@H](C(=O)N[C@@H](CCCCNc1ccc([N+](=O)[O-])cc1[N+](=O)[O-])C(N)=O)[C@@H](C)O)[C@@H](C)O", "target": "MIPEP", "test": "FRET peptide hydrolysis", "Km": "10 µM"}
{"Structure (SMILES)": "CC(=O)NCCCC[C@H](NC(=O)CNC(=O)[C@H](CC(C)C)NC(C)=O)C(=O)Nc1ccc2c(C)cc(=O)oc2c1", "target": "Histone deacetylase 3/Nuclear receptor corepressor 2 (HDAC3/NCoR2) (Homo sapiens, UniProt O15379+Q9Y618)", "test": "fluorogenic trypsin-coupled", "setting": "pH 7.4, 25 °C", "Km": "< 10 µM"}
{"note": "A few entries again:"}
{"Structure (SMILES)": "CC(=O)NCCCC[C@H](NC(=O)[C@H](CCCCNC(C)=O)NC(=O)[C@H](Cc1c[nH]cn1)NC(=O)[C@H](CCCNC(=N)N)NC(C)=O)C(N)=O", "target": "HDAC8", "setting": "25 °C", "Km": "3100 ± 1100 µM"}
